Experimental data of several laboratories.
Parts stem from different laboratories: compare values within a part only. Changes are numbered by the printed parent chain.

Block 1
Target: Histone acetyltransferase KAT6A, both winged helices, GST fusion (KAT6A, Homo sapiens, UniProt Q92794, residues 1-181)
Method: protein binding microarray
Form: double-stranded DNA, one strand shown
Matrix: in vitro
Concentration: not given
Notes: 8-mer, flanks averaged, mean of 2 arrays, mostly near background
Reference: not given
Reading: higher = stronger binding
Quantity: E-score
Construct (chain): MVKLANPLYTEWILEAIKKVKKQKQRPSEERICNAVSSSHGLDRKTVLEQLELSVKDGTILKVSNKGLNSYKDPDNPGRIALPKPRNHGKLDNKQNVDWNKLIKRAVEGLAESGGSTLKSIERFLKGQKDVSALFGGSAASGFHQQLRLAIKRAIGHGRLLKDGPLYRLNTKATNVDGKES
AATGAAGC: -0.109
GACCGCAA: 0.158
AGGCGAGA: -0.235
AGGGGACG: -0.132
AATTTTCT: -0.143
ATCGCCTA: 0.0153
AGGCCGCG: 0.278
GGGTAAAC: 0.0173
AGGTTCCC: -0.0235
AAGTCTCC: -0.125
CCCATGTA: 0.0291
ACTCCCTA: -0.133
GGGATACA: -0.169
GATTCTCA: -0.0762
GTTTTAGA: -0.163
CGCCCGTA: 0.275
AGTGCTAC: -0.196
AGAATTAG: -0.218
CAAACGAG: -0.123

Block 2
Target: CCNE1, cyclin fold, Cln2 fusion (human)
Method: yeast growth competition, sequencing
Matrix: yeast
Notes: weak parent motif
Reference: not given
Reading: higher = stronger binding
Quantity: normalised enrichment score
Starting sequence: EXO1 docking peptide (human); KPECGRVQRAIFQ
KPECGRVQRAIFA [Q13A]: 0.33
KAECGRVQRAIFQ [P2A]: 0.313
KPECGRVARAIFQ [Q8A]: 0.386
KPECGAVQRAIFQ [R6A]: 0.0228
KPEAGRVQRAIFQ [C4A]: 0.157
KPECGRVQAAIFQ [R9A]: -0.0326

Block 3
Target: ABI1, truncated, D143A, DHFR fusion (Arabidopsis thaliana)
Method: DHFR PCA, deep sequencing
Matrix: yeast
Notes: methotrexate growth selection, single substitutions
Together with: (+)-ABA 0 µM
Reference: wild-type fitted maximum
Reading: higher = stronger binding
Quantity: relative binding score
Starting sequence: PYL1, truncated, DHFR fusion (Arabidopsis thaliana); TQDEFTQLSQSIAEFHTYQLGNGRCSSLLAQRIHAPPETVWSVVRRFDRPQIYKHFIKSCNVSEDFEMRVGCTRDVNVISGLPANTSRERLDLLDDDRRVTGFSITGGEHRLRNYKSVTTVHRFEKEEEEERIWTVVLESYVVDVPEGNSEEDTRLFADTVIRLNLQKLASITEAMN; partner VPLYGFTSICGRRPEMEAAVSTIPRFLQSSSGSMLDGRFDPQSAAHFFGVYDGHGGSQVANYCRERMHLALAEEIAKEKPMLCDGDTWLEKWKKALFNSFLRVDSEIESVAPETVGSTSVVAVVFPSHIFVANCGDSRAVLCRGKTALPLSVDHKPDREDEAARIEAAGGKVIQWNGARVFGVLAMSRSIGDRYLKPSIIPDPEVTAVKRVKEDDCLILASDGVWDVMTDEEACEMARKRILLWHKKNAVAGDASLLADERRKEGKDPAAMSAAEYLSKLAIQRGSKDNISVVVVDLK
L169E: -2.51%
F15K: -0.911%
Y18M: 2.04%
V43Q: -5.9%
Y18L: -0.225%
K168Q: 12.4%
W41E: 1.74%
E152R: 0.397%
V40H: -6.37%
L169D: 4.36%
S26A: 13.6%
G107M: 0.195%
E109V: 2.42%
F103H: 2.09%
L29S: -1.52%
V136T: -2.21%
V121N: -1%
H55A: 18.8%
N165G: 4.52%
E147Q: 10.9%
V145W: -6.67%
E130F: 24.3%
S87P: 8.58%
I172E: -8.45%
V40D: -0.31%

Block 4
Target: Sal-like protein 4, full length isoform B (SALL4, Homo sapiens, UniProt Q9UJQ4-2, residues 1-616)
Method: universal PBM
Form: double-stranded DNA, one strand shown
Matrix: in vitro
Concentration: not given
Notes: 8-mer, flanks averaged, mean of replicates
Reading: higher = stronger binding
Quantity: E-score
ATGGGCTC: -0.126
GAACAAGC: 0.0461
CCGACAAG: -0.141
AATTACGA: 0.283
TAGTGGAA: -0.0794
TCCTAAGA: 0.0114
GAGCAATC: -0.0916
ACTTGGGG: -0.0538
ATGACAAT: 0.328
CCTTCGCG: -0.221
CAAGTCTG: -0.0506
CTGTGGAC: -0.17
AATCTTTG: 0.18
CTTATGCA: 0.211
CTCTGCTC: -0.158
GCTGGGAA: -0.181
TCGGTTCA: -0.0563
TCCCCGGA: -0.319
CTTTGGTC: -0.0459
TACAGCCA: -0.0454
ATTAAGAC: 0.218
AAGATTGG: 0.0823
ATTCAACG: 0.116
CGCGACAG: -0.209
GAAAGTTC: -0.0647

Block 5
Target: CREM, bZIP domain (human)
Method: DHFR protein complementation
Matrix: yeast
Notes: single substitutions, most at no-binding floor
Reference: wild-type JUN-FOS pair
Reading: higher = stronger binding
Quantity: binding fitness
Starting sequence: JUN, bZIP domain (human); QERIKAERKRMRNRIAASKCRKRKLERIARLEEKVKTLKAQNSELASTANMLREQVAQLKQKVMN; partner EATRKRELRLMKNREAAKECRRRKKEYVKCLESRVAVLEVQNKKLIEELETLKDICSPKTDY
A46H: -1.47 natural log
E33N: -1.48 natural log
L31N: -1.41 natural log
E44Q: -1.36 natural log
Q55G: -1.53 natural log
V35S: -1.52 natural log
E32H: -1.46 natural log
E33W: -1.41 natural log
L45Q: -1.54 natural log
V56A: -1.45 natural log
E54P: -1.55 natural log
R53P: -1.51 natural log
E32K: -1.45 natural log
K34H: -1.53 natural log
K39M: -1.26 natural log
T48A: -1.33 natural log
A29P: -1.42 natural log
S43I: -1.39 natural log
S47A: -1.38 natural log
R53D: -1.41 natural log
A29R: -1.42 natural log
L52A: -1.45 natural log
T48R: -1.4 natural log
Q41T: -1.41 natural log
I28R: -1.48 natural log

Block 6
Target: CEP164, C-terminal peptide (human)
Method: DHFR complementation, deep sequencing
Matrix: yeast
Notes: single substitutions, model-inferred values
Reference: wild type
Reading: higher = weaker binding
Quantity: binding free energy change
Starting sequence: PDZK1, PDZ domain 2 (human); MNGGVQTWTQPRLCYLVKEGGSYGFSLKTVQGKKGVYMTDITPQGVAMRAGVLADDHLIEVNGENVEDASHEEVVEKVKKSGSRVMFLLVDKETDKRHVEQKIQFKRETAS; partner HNRVKVYRF
V74Q: 0.0345 kcal/mol
G51D: 1.34 kcal/mol
K106A: -0.32 kcal/mol
S22V: -0.0703 kcal/mol
Q44H: 0.101 kcal/mol
E100N: -0.112 kcal/mol
L89H: 0.99 kcal/mol
M86A: -0.196 kcal/mol
K79D: 1.8 kcal/mol
G51A: 0.749 kcal/mol
V46C: 0.296 kcal/mol
G21A: -0.19 kcal/mol
D56W: 0.307 kcal/mol
D91I: 0.527 kcal/mol
K18L: 0.768 kcal/mol
Q10D: 0.209 kcal/mol
G3M: 0.0315 kcal/mol
V90W: -0.0981 kcal/mol
V5A: -0.109 kcal/mol
D55Y: 0.443 kcal/mol
R107T: -0.194 kcal/mol

Excerpt of the above (block 3):
F15K: -0.911%
Y18M: 2.04%
V43Q: -5.9%
Y18L: -0.225%
K168Q: 12.4%
W41E: 1.74%
E152R: 0.397%
V40H: -6.37%
L169D: 4.36%
S26A: 13.6%
G107M: 0.195%
E109V: 2.42%
F103H: 2.09%
L29S: -1.52%
V136T: -2.21%
V121N: -1%
H55A: 18.8%
N165G: 4.52%
E147Q: 10.9%
V145W: -6.67%
E130F: 24.3%
